Assay results of several laboratories.
Parts stem from different laboratories: compare values within a part only.
UniProt O15197, sequence (whole entry, looked up): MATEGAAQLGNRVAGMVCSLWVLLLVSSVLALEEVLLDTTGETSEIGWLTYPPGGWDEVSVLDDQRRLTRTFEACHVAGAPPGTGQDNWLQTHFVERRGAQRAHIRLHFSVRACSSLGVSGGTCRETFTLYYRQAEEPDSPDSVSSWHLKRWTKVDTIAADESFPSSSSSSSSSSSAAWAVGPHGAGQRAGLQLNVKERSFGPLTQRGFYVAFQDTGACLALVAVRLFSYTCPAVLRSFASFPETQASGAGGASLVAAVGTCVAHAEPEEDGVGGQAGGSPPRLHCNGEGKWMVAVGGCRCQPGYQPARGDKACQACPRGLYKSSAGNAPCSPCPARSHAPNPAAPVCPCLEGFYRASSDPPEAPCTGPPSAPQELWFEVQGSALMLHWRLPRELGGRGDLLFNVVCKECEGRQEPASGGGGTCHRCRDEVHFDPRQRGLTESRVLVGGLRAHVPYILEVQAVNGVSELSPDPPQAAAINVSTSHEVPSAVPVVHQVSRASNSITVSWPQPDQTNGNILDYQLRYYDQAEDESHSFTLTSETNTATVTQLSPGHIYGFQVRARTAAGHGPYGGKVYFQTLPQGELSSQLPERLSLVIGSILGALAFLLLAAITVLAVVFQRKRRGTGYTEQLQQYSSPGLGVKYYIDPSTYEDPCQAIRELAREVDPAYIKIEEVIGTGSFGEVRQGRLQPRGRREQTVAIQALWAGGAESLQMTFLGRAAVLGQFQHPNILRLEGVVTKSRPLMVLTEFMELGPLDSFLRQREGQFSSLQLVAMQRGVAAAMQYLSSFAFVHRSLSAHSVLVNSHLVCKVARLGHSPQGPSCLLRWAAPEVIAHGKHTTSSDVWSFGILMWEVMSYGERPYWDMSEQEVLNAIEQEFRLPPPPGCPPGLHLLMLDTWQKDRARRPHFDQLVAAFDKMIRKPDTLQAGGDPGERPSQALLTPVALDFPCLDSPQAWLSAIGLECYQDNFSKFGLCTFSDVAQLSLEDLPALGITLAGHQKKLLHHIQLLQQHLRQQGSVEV
UniProt Q8TDR2, sequence (whole entry, looked up): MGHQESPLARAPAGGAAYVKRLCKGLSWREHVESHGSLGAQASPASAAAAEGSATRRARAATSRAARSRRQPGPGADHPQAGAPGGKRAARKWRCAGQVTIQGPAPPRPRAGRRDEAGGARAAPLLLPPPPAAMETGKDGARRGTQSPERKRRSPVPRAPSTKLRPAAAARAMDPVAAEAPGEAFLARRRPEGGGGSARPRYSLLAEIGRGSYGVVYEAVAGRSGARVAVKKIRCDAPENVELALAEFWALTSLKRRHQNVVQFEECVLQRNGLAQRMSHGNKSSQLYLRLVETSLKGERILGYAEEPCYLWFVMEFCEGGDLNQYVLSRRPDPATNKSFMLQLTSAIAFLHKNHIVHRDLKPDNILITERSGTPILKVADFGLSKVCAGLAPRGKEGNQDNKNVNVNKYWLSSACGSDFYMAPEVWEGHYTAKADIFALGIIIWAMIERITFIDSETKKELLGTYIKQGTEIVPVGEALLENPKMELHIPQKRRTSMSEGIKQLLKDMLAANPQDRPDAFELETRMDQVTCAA
UniProt P78368, sequence (whole entry, looked up): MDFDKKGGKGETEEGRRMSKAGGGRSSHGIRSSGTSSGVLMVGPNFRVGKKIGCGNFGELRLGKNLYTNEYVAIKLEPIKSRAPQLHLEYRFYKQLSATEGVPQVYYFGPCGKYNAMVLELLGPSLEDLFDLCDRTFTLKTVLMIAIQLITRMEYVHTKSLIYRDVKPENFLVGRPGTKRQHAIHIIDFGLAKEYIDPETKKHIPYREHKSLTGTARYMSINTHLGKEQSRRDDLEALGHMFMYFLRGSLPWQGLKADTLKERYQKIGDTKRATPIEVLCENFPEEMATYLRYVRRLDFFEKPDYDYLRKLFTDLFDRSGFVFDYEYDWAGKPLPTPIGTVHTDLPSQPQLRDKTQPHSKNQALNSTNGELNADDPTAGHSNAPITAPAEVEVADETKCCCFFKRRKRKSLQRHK
UniProt P31152, sequence (whole entry, looked up): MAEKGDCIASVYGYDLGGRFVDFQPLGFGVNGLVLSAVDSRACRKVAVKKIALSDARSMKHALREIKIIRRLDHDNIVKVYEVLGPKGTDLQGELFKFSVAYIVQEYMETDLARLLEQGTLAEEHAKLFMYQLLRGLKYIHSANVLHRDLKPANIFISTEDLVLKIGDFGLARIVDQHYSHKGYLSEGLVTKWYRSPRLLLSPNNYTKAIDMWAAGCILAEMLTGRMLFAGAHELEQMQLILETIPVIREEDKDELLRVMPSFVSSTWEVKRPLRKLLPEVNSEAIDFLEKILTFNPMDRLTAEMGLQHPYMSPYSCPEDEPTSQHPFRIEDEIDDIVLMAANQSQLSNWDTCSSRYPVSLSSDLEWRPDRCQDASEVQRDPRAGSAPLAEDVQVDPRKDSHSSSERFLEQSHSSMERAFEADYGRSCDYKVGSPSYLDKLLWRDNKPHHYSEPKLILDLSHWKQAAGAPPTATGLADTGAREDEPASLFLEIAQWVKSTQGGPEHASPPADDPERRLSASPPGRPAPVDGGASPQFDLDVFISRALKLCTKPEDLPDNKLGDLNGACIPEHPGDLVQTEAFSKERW
UniProt Q13705, sequence (whole entry, looked up): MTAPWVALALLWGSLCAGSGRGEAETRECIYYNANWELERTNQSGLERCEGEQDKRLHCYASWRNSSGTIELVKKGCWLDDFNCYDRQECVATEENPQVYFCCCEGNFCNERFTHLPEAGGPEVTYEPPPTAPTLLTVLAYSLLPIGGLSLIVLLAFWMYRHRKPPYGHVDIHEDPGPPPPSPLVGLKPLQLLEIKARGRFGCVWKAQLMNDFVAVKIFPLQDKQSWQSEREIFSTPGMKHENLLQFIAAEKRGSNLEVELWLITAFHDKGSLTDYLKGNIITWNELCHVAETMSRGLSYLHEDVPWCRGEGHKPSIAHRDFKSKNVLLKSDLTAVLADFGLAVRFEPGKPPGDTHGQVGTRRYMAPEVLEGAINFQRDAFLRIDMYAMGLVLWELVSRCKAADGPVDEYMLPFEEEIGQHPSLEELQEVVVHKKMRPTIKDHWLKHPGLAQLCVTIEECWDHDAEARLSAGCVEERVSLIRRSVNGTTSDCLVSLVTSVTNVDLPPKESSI
UniProt Q9UM73, sequence (whole entry, looked up): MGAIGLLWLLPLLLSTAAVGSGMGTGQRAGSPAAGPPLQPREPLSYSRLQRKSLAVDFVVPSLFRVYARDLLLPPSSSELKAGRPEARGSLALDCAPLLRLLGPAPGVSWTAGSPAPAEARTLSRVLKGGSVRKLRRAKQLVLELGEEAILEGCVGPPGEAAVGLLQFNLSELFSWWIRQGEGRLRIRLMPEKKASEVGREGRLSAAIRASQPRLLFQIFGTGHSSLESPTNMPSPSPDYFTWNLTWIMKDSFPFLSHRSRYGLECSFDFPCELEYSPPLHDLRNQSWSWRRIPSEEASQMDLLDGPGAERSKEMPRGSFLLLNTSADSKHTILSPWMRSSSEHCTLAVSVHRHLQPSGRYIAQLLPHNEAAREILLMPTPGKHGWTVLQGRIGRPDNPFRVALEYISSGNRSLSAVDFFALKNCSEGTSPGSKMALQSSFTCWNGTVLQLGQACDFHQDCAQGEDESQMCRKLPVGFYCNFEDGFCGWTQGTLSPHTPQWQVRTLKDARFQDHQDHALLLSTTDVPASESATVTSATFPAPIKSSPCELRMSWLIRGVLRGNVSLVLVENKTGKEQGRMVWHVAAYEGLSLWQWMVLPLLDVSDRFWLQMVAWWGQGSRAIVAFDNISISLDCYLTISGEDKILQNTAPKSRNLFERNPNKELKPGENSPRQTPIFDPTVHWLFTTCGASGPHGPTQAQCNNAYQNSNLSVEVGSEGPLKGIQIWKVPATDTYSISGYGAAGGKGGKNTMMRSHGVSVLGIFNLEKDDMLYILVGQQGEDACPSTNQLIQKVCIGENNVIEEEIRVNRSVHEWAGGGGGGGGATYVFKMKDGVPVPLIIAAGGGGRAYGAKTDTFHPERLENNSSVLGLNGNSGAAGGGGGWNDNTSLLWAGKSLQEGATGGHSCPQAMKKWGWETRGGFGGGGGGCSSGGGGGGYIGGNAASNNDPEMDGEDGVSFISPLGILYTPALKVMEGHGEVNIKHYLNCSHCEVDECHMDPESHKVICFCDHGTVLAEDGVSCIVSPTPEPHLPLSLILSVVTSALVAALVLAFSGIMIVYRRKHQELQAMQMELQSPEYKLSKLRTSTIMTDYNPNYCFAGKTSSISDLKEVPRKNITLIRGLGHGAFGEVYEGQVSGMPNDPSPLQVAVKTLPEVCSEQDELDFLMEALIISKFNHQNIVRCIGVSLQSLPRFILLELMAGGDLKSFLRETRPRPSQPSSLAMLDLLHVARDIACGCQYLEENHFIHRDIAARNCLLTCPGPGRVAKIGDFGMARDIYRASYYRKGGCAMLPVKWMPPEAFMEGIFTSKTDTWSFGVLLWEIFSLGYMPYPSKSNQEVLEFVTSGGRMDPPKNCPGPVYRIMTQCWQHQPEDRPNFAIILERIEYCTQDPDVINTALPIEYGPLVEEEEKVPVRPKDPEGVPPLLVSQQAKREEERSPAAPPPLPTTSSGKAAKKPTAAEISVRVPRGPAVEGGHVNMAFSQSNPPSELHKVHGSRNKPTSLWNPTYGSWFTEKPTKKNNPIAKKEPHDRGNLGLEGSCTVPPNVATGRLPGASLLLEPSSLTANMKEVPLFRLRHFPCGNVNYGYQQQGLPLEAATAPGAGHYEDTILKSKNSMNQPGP
UniProt P11802, sequence (whole entry, looked up): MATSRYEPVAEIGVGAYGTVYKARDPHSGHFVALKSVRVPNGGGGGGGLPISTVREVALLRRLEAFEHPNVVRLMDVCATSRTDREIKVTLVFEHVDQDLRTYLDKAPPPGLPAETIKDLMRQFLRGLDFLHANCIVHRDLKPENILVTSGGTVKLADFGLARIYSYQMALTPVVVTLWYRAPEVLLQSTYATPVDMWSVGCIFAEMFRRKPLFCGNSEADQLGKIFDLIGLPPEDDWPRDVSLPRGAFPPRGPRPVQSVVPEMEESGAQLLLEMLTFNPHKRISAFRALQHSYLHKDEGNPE

Study 1
Species: human
Medium: microsomes or S9
Tested at: 2 µM
Time: 0.5 h
Compound	remaining compound [%]
Nc1nc(N2C(=O)C3CC=CCC3C2=O)nn1-c1ccccc1 (stereo not shown)	99
CC(Nc1ncnc2c1NC(=O)CN2)c1cc2ccccc2nc1-c1ccccc1 (stereo not shown)	9.59
Cn1c(=O)c2sc3c(c2n(CC(N)=O)c1=O)CCCC3	49.5

Study 2
Target: PABPC1L2, full length, GST fusion (mouse, UniProt A0ABA7IW68)
Technique: RNAcompete
Molecule type: RNA
Medium: in vitro
Tested at: 20 nM
Notes: 7-mer, probes averaged, single round
Reference: mean of 7-mers
Reading: higher = stronger binding
Target sequence (chain): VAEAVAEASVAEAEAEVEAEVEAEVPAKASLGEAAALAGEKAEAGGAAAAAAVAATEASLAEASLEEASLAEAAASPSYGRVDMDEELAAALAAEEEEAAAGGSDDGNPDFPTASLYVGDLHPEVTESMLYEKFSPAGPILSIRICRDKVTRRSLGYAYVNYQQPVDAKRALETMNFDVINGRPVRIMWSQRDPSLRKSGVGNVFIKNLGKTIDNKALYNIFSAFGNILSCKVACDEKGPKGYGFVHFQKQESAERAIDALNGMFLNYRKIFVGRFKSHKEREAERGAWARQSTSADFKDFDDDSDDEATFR
Oligonucleotide	7-mer Z-score
AGGCGGA	0.385
ACAGCAG	0.323
UCUAGUA	-0.213
UGUUUAU	-0.353
UUCCCUC	-0.472
CCGCACC	-0.374
GCGCCUC	-0.233
UGGCAUA	-0.0337

Study 3
Cell line: A-375
Tested at: 100 µM
Time: 36 h
SMILES	viability [%]
COc1c(C)c2c(c(O)c1C/C=C(\C)CCC(=O)OCCN1CCOCC1)C(=O)OC2	34.9
CC(=O)OCC(=O)[C@@]1(O)CC[C@H]2[C@@H]3CCC4=CC(=O)C=C[C@]4(C)[C@H]3[C@@H](O)C[C@@]21C	121
CC(=O)Oc1c(C)c(C)c2c(c1C)CCC(C)(CCC[C@H](C)CCC[C@H](C)CCCC(C)C)O2 (stereo partly shown)	108

Study 4
Organism: Sarcocystis neurona
Observed: parasite growth
Tested at: 10 µM
Notes: secondary screen
SMILES	inhibition [%]
Cc1ccnc2c1NC(=O)c1cccnc1N2C1CC1	-37.7
COC(=O)C1=C(C)NC(C)=C(C(=O)OCCN(C)Cc2ccccc2)C1c1cccc([N+](=O)[O-])c1 (stereo not shown)	-35.1
CN(C)c1ccc(O)c2c1C[C@H]1C[C@H]3[C@H](N(C)C)C(O)=C(C(N)=O)C(=O)[C@@]3(O)C(O)=C1C2=O	13.4

Study 5
Structure (SMILES): CN(C)C(=O)Cn1cc(-c2nc([C@@](C)(c3ccc(-c4cnc(N)nc4)cc3)C3CC3)no2)cn1
Technique: competition with immobilised ligand
Tested at: 1 µM
target	observed	remaining binding
ALK (Homo sapiens, UniProt Q9UM73)	cell-free assay	85%
LRRK2 (Homo sapiens, UniProt Q5S007, G2019S)	cell-free assay	100%
MAP3K5 (Homo sapiens, UniProt Q99683)	cell-free assay	99%
STK35 (Homo sapiens, UniProt Q8TDR2)	cell-free assay	88%
PTK2 (Homo sapiens, UniProt Q05397)	cell-free assay	100%
CSNK1G2 (Homo sapiens, UniProt P78368)	cell-free assay	100%
EPHB6 (Homo sapiens, UniProt O15197)	cell-free assay	76%
BRAF (Homo sapiens, UniProt P15056)	cell-free assay	82%
CDKL3 (Homo sapiens, UniProt Q8IVW4)	binding	94%
LATS1 (Homo sapiens, UniProt O95835)	cell-free assay	93%
ACVR2B (Homo sapiens, UniProt Q13705)	cell-free assay	81%
MAPK4 (Homo sapiens, UniProt P31152)	cell-free assay	88%
CDC42BPA (Homo sapiens, UniProt Q5VT25)	cell-free assay	100%
DAPK1 (Homo sapiens, UniProt P53355)	cell-free assay	82%
SYK (Homo sapiens, UniProt P43405)	cell-free assay	73%
CDK4 (Homo sapiens, UniProt P11802)	cell-free assay	94%
PRKACA (Homo sapiens, UniProt P17612)	cell-free assay	87%

Excerpt of the above (study 5):
target	observed	remaining binding
DAPK1 (Homo sapiens, UniProt P53355)	cell-free assay	82%
SYK (Homo sapiens, UniProt P43405)	cell-free assay	73%
CDK4 (Homo sapiens, UniProt P11802)	cell-free assay	94%
